Assay results collected from several papers.
Numbered parts are unrelated; each lists some results of a single study.
UniProt Q9NSY1, sequence (whole entry, looked up): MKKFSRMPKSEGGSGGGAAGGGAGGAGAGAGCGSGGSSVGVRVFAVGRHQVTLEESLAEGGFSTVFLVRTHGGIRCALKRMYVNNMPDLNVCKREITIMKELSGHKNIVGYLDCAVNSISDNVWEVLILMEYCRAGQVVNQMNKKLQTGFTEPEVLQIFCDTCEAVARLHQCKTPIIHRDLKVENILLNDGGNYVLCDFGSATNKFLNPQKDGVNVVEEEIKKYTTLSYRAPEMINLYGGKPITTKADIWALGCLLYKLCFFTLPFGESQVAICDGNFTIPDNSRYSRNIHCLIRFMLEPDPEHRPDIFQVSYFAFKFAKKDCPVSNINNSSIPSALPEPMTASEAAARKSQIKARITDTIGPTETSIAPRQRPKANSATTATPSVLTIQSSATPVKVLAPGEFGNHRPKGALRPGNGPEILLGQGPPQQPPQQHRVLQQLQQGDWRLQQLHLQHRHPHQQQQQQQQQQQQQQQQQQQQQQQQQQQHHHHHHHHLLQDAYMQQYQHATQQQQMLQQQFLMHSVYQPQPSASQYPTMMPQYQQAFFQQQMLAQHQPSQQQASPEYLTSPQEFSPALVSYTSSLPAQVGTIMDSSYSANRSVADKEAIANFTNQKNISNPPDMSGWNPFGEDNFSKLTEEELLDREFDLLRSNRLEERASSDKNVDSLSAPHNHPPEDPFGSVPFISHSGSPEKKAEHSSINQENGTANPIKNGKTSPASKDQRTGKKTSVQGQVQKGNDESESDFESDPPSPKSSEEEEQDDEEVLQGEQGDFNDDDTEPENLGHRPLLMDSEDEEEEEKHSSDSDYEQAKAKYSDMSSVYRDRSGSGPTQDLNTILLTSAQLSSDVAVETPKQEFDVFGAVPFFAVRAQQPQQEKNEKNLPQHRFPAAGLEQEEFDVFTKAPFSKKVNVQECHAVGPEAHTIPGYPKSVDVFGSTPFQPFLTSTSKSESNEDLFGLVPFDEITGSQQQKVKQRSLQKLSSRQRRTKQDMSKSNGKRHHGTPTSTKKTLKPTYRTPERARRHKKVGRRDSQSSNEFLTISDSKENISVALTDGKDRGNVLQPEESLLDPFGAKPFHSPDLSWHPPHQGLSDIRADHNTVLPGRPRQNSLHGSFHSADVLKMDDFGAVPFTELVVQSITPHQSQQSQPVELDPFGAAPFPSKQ
UniProt Q52WX2, sequence (whole entry, looked up): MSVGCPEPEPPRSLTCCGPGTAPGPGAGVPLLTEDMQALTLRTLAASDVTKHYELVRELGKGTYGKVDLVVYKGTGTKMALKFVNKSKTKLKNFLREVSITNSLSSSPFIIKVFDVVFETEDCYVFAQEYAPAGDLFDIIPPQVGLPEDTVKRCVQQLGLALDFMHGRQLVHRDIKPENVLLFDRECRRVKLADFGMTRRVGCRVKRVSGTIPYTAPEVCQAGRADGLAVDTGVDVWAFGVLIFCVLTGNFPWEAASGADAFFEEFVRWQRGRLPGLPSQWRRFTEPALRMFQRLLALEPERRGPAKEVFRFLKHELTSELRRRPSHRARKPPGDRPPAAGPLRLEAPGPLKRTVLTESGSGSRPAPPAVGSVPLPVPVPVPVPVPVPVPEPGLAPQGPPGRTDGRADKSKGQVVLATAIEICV
UniProt P51956, sequence (whole entry, looked up): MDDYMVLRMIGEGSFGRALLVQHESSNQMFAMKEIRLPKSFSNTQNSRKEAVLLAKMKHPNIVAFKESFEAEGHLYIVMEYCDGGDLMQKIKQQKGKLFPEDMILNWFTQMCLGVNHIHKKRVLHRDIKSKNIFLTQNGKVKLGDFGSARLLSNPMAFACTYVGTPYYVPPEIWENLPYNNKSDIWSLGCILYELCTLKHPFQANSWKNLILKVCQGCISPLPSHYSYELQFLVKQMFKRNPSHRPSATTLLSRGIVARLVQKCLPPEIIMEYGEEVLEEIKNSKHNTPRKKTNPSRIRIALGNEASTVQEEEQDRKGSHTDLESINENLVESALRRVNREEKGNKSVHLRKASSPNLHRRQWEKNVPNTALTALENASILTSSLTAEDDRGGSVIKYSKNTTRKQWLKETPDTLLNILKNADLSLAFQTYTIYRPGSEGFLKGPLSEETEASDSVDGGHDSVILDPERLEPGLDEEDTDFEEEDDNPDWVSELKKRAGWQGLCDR
UniProt Q00532, sequence (whole entry, looked up): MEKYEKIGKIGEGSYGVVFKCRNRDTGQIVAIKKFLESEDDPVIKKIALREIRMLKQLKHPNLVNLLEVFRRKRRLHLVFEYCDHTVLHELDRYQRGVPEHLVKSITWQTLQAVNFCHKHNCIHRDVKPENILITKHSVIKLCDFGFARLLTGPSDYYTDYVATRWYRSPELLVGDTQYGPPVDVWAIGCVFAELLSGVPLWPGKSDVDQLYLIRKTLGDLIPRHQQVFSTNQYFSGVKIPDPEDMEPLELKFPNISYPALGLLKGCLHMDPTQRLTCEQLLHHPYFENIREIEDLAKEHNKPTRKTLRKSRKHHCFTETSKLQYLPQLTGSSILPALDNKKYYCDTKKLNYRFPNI
UniProt P49841, sequence (whole entry, looked up): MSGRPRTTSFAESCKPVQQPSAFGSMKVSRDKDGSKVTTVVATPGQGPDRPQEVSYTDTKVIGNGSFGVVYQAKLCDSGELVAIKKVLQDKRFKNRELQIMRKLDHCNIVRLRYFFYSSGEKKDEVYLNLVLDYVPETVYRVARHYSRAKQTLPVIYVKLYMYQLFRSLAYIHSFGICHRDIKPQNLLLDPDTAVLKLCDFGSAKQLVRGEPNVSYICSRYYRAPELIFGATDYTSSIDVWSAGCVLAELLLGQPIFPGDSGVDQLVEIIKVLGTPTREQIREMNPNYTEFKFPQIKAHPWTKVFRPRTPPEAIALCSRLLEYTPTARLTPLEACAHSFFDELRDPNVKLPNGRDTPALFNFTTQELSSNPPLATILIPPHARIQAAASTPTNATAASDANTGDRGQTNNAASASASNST
UniProt O75716, sequence (whole entry, looked up): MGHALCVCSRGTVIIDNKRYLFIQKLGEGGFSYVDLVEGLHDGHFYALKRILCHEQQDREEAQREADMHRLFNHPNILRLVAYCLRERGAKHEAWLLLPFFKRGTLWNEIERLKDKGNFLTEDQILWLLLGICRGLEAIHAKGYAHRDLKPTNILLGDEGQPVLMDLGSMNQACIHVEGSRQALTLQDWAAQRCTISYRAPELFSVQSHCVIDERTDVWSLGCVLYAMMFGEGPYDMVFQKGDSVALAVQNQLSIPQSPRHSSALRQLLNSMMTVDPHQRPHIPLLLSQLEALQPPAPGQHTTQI
UniProt O15111, sequence (whole entry, looked up): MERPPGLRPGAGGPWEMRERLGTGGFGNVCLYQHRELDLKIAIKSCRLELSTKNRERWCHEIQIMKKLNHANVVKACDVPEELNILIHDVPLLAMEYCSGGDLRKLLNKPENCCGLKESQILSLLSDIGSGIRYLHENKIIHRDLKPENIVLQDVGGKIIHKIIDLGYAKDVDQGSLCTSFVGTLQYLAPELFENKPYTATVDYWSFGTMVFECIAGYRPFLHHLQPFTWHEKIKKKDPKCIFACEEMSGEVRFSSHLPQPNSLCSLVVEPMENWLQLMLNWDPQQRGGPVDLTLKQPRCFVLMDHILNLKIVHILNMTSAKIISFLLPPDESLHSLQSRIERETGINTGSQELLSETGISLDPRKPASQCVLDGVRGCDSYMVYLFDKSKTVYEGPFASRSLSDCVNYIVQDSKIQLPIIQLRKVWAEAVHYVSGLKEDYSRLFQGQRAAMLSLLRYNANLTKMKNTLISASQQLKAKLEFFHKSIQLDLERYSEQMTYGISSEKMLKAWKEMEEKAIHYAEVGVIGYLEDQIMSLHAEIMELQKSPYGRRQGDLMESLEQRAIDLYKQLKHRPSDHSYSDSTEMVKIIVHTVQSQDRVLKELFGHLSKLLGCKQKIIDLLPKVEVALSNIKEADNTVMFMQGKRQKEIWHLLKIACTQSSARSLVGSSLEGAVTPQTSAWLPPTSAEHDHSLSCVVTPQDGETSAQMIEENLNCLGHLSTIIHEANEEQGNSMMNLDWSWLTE
UniProt Q9BWU1, sequence (whole entry, looked up): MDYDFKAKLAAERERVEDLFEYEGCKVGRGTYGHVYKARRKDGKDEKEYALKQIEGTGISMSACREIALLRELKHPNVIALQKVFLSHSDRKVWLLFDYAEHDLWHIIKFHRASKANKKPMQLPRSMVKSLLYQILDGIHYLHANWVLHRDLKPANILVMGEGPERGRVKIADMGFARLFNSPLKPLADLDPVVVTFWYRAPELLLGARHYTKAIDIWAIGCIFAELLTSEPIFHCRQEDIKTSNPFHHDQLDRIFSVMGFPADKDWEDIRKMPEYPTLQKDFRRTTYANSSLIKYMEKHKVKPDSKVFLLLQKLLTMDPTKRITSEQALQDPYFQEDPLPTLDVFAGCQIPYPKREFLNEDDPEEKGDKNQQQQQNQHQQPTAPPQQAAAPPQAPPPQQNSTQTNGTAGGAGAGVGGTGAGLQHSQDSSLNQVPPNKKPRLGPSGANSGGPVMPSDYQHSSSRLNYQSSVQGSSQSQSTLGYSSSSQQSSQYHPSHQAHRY

Block 1 — method: phase 2a trial; host: idiopathic pulmonary fibrosis patients
SMILES: CC(C)n1cnc(-c2ccc(F)cc2)c1-c1ncc(C(=O)Nc2ccc(N3CCN(C)CC3)cc2)[nH]1
assay	setting	adverse event incidence [%]
refers to: gingivitis	dose not given, grade 2, all arms pooled	0
refers to: infection	60 mg once daily, grade 1	0
refers to: drug eruption	30 mg once daily, grade 3	0
refers to: hydroxybutyrate dehydrogenase increased	dose not given, grade 5, all arms pooled	0

Block 2 — organism: Sarcocystis neurona; read-out: parasite activity; concentration: 10 µM; time: 96 h
Compound	activity class
CS(=O)(=O)c1ccc(C2=C(c3ccccc3)C(=O)OC2)cc1	inactive
COC(=O)C1=C(C)NC(C)=C(C(=O)OCCN(C)Cc2ccccc2)C1c1cccc([N+](=O)[O-])c1 (stereo not drawn)	inactive
C[C@@H]1O[C@@H](OC[C@H]2O[C@@H](Oc3c(-c4ccc(O)c(O)c4)oc4cc(O)cc(O)c4c3=O)[C@H](O)[C@@H](O)[C@@H]2O)[C@H](O)[C@H](O)[C@H]1O	inactive
OC(Cn1cncn1)(Cn1cncn1)c1ccc(F)cc1F	inactive
COc1cc(C)nc(-n2nc(C)cc2OC)n1	inactive
CC(=O)OCC(=O)[C@@]1(O)CC[C@H]2[C@@H]3CCC4=CC(=O)CC[C@]4(C)[C@H]3C(=O)C[C@@]21C	inactive

Block 3 — host: mouse; matrix: microsomes or S9; concentration: 2 µM; time: 0.5 h
Compound	remaining compound [%]
CCc1ncc(CNC(=O)c2c[nH]c(=O)cc2OC)o1	86.1
COC(=O)[C@@H](O)c1c(C)nc2[nH]c3c(c2c1-c1ccc(Cl)cc1)CCCC3	35.3
COc1ccc(/N=c2\[nH]nc3nc(C)cc(C)n23)cc1	7.91
CO[C@@H]1COC[C@@H]1NC(=O)NC1Cc2ccccc2C1	72.1
OC(CNc1ncnc2nc[nH]c12)c1ccc2ccccc2c1 (stereo not drawn)	23.3
Cc1cnc(C2CC2)n1CCNC(=O)c1ccccn1	53.9

Block 4 — concentration: 1 µM
SMILES: Cn1nc(C(F)(F)F)cc1-c1cnc(N2CCc3cc(S(=O)(=O)Nc4c(F)cc(Cl)cc4F)cc(N4CCCC4=O)c32)nc1
target	assay	remaining binding [%]
STK16 (Homo sapiens, UniProt O75716)	cell-free assay, competition with immobilised ligand	92
BMP2K (Homo sapiens, UniProt Q9NSY1)	cell-free assay, competition with immobilised ligand	92
CDKL1 (Homo sapiens, UniProt Q00532)	binding, competition with immobilised ligand	77
CDK13 (Homo sapiens, UniProt Q14004)	cell-free assay, competition with immobilised ligand	79
SBK1 (Homo sapiens, UniProt Q52WX2)	cell-free assay, competition with immobilised ligand	92
MAP3K19 (Homo sapiens, UniProt Q56UN5)	cell-free assay, competition with immobilised ligand	82
CDK19 (Homo sapiens, UniProt Q9BWU1)	competition binding	100
GSK3B (Homo sapiens, UniProt P49841)	cell-free assay, competition with immobilised ligand	100
EGFR (Homo sapiens, UniProt P00533, del746-750)	cell-free assay, competition with immobilised ligand	100
CHUK (Homo sapiens, UniProt O15111)	cell-free assay, competition with immobilised ligand	99
NEK3 (Homo sapiens, UniProt P51956)	cell-free assay, competition with immobilised ligand	90
FLT3 (Homo sapiens, UniProt P36888, D835V/ITD)	cell-free assay, competition with immobilised ligand	82
MET (Homo sapiens, UniProt P08581, M1250T)	cell-free assay, competition with immobilised ligand	94
Receptor-type tyrosine-protein kinase FLT3, autoinhibited (FLT3, Homo sapiens, UniProt P36888)	cell-free assay, competition with immobilised ligand	100
MARK4 (Homo sapiens, UniProt Q96L34)	cell-free assay, competition with immobilised ligand	88

Other studies, line by line — cell line: cells
Target: Beta-1 adrenergic receptor (ADRB1, Homo sapiens, UniProt P08588)
UniProt P08588, sequence (whole entry, looked up): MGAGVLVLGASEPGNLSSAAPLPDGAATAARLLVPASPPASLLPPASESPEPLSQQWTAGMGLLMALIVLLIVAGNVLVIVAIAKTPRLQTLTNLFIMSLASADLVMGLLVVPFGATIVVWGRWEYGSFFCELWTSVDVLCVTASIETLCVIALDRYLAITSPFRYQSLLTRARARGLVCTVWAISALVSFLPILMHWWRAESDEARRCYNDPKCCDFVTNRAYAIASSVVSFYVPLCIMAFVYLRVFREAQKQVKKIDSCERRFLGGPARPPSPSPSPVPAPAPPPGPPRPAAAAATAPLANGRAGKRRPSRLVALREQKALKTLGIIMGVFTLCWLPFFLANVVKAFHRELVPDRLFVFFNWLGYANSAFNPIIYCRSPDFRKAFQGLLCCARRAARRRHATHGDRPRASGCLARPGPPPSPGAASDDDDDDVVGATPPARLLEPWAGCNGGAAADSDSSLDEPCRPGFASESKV
Structure (SMILES)	EC50 [µM]
Cc1c(-c2c(-c3ccc(F)o3)sc3ncnc(O[C@@H](Cc4ccccc4OCc4ccnn4CC(F)(F)F)C(=O)O)c23)ccc(OCCN2CCN(C)CC2)c1Cl	≥ 100
c1nc2nc(Nc3ccc(N4CCOCC4)cc3)nc(NC3CCCCC3)c2[nH]1	≥ 100

For quick reference, copied from above (block 2):
Compound	activity class
OC(Cn1cncn1)(Cn1cncn1)c1ccc(F)cc1F	inactive
CS(=O)(=O)c1ccc(C2=C(c3ccccc3)C(=O)OC2)cc1	inactive
